Experimental data of several laboratories.
Each line is one published result; not all experiments were run side by side. ± marks the error that the study gave.

Structure (SMILES) | test | system | conditions | tissue uptake
CCCC[C@H](NC(=O)CNC(=O)CNC(=O)CN1CCN(CC(=O)O)CCN(CC(=O)O)CCN(CC(=O)O)CC1)C(=O)N[C@H]1CC(=O)NCCCC[C@@H](C(N)=O)NC(=O)[C@H](Cc2c[nH]c3ccccc23)NC(=O)[C@H](CCCNC(=N)N)NC(=O)[C@@H](Cc2ccccc2)NC(=O)[C@H](Cc2c[nH]cn2)NC1=O [lead-203 labelled] |  | C57 mouse, pancreas | intravenous, 0.056 MBq, 24 h | 0.09 ± 0.03 %ID/g
CN1C(=O)[C@@H](Cc2ccc(O)c(I)c2)NC(=O)CNC(=O)[C@H](Cc2ccc3ccccc3c2)NC(=O)[C@H](CCCNC(=N)N)NC(=O)[C@H]1CCCNC(=O)c1ccc(CNC(=O)CN2CCN(CC(=O)O)CCN(CC(=O)O)CC2)cc1 [fluorine-18 labelled] | biodistribution | SCID mouse, Daudi lymphoma xenograft, bone | 60 min | 2.7 ± 0.13 %ID/g
CC(C)[C@H](NC(=O)[C@@H]1CCCN1C(=O)[C@H](CCCNC(=N)N)NC(=O)[C@H](CS)NC(=O)[C@H](Cc1c[nH]c2ccccc12)NC(=O)[C@H](CCCNC(=N)N)NC(=O)[C@@H](Cc1ccccc1)NC(=O)[C@H](Cc1c[nH]cn1)NC(=O)[C@H](CCC(=O)O)NC(=O)[C@H](CS)NC(=O)[C@H](CS)NC(=O)COCCOCCNC(=O)[C@@H]1CC(=O)N[C@@H](CCCNC(=N)N)C(=O)NCC(=O)N[C@@H](CC(=O)O)C(=O)N[C@H](Cc2ccc(O)cc2)C(=O)N1)C(N)=O [technetium-99m labelled] |  | nude mouse, M21 melanoma xenograft, brain | intravenous, 2 h | 0.02 ± 0.01 %ID/g
CCCC[C@H](NC(=O)CNC(=O)CNC(=O)CN1CCN(CC(=O)O)CCN(CC(=O)O)CC1)C(=O)N[C@H]1CC(=O)NCCCC[C@@H](C(N)=O)NC(=O)[C@H](Cc2c[nH]c3ccccc23)NC(=O)[C@H](CCCNC(=N)N)NC(=O)[C@@H](Cc2ccccc2)NC(=O)[C@H](Cc2c[nH]cn2)NC1=O [copper-64 labelled] |  | female C57 mouse, B16/F1 melanoma, bone | intravenous, 0.037 MBq, 0.5 h | 0.41 ± 0.19 %ID/g
CN(C)c1ccc(-c2nc3ccc(OCCCCCN4CCN5CCN(CC4)CC(=O)[O][Al]([18F])[O]C(=O)C5)cc3s2)cc1 |  | ICR mouse, kidney | intravenous, 30 min | 3.46 ± 0.47 %ID/g
O=C(O)CCC(NP(=O)(O)OCCC[C@@H](NC(=O)CC[C@H](NC(=O)CCCCCNC(=O)c1ccc([18F])cc1)C(=O)O)C(=O)O)C(=O)O (some centres unmarked) |  | mouse, CWR22Rv1 xenograft, spleen | dose not given, 4 h, blocking agent pre-dosed | 0.275 ± 0.065 %ID/g
CC(C)[C@H](NC(=O)[C@@H]1CCCN1C(=O)[C@H](CCCNC(=N)N)NC(=O)[C@H](CS)NC(=O)[C@H](Cc1c[nH]c2ccccc12)NC(=O)[C@H](CCCNC(=N)N)NC(=O)[C@@H](Cc1ccccc1)NC(=O)[C@H](Cc1c[nH]cn1)NC(=O)[C@H](CCC(=O)O)NC(=O)[C@H](CS)NC(=O)[C@H](CS)NC(=O)CNC(=O)[C@@H]1CC(=O)N[C@@H](CCCNC(=N)N)C(=O)NCC(=O)N[C@@H](CC(=O)O)C(=O)N[C@H](Cc2ccc(O)cc2)C(=O)N1)C(N)=O [technetium-99m labelled] |  | C57 mouse, female, B16/F1 melanoma, tumor | intravenous, 0.037 MBq, 0.5 h | 9.44 ± 1.22 %ID/g
COC(=O)c1ccc(-c2cn(Cc3cc(Cl)ccc3O[11CH3])nn2)cc1 | PET/CT | C57BL/6 mouse, liver | 60 min | 5.65 %ID/cc
O=C([O-])CN1CCN(CC(=O)[O-])CCN(CC(=O)NCCc2ccc3c(c2)C2C=CCC2C(c2cc4c(cc2Br)OCO4)N3)CCN(CC(=O)[O-])CC1.[111In+3] (centres unmarked) |  | mouse, Hec50 endometrial tumour, large intestine | 2 h post injection | 15.3 ± 4.78 %ID/g
CC(C)[C@H](NC(=O)[C@@H]1CCCN1C(=O)[C@H](CCCNC(=N)N)NC(=O)[C@H](CS)NC(=O)[C@H](Cc1c[nH]c2ccccc12)NC(=O)[C@H](CCCNC(=N)N)NC(=O)[C@@H](Cc1ccccc1)NC(=O)[C@H](Cc1c[nH]cn1)NC(=O)[C@H](CCC(=O)O)NC(=O)[C@H](CS)NC(=O)[C@H](CS)NC(=O)[C@@H]1CC(=O)N[C@@H](CCCNC(=N)N)C(=O)NCC(=O)N[C@@H](CC(=O)O)C(=O)N[C@H](Cc2ccc(O)cc2)C(=O)N1)C(N)=O [technetium-99m labelled] |  | C57 mouse, female, B16/F1 melanoma, pancreas | intravenous, 0.037 MBq, 2 h | 0.29 ± 0.1 %ID/g
CCCC[C@@H]1NC(=O)[C@@H](NC(=O)[C@H](CCC(=O)O)NC(=O)CNC(=O)CN2CCN(CC(=O)O)CCN(CC(=O)O)CCN(CC(=O)O)CC2)CCCCNC(=O)C[C@@H](C(N)=O)NC(=O)[C@H](C(C)C)NC(=O)[C@@H]2CCCN2C(=O)[C@H](CCCNC(=N)N)NC(=O)CNC(=O)[C@H](Cc2c[nH]c3ccccc23)NC(=O)[C@H](CCCNC(=N)N)NC(=O)[C@@H](Cc2ccccc2)NC(=O)[C@H](Cc2c[nH]cn2)NC(=O)[C@H](CCC(=O)O)NC1=O [gallium-67 labelled] |  | C57 mouse, B16/F1 melanoma-bearing, kidney | 0.037 MBq, 2 h, added: L-lysine 15 mg co-injected | 8.32 ± 5.18 %ID/g
CC(C)C[C@H](NC(=O)C[C@H](O)[C@H](CC(C)C)NC(=O)[C@H](Cc1c[nH]cn1)NC(=O)CNC(=O)[C@@H](NC(=O)[C@H](C)NC(=O)[C@H](Cc1c[nH]c2ccccc12)NC(=O)[C@H](CCC(N)=O)NC(=O)[C@@H](Cc1ccccc1)NC(=O)CCNC(=O)CCNC(=O)CN1CCN(CC(=O)O)CCN(CC(=O)O)CCN(CC(=O)O)CC1)C(C)C)C(N)=O [lutetium-177 labelled] |  | mouse PC-3 xenograft, tumour | intraperitoneal, 200 pmol, 1 h, without PA | 8.9 ± 2.4 %ID/g
CCCC[C@H](NC(=O)CN1CCC(NC(=O)CN2CCN(CC(=O)O)CCN(CC(=O)O)CCN(CC(=O)O)CC2)CC1)C(=O)N[C@H]1CC(=O)NCCCC[C@@H](C(N)=O)NC(=O)[C@H](Cc2c[nH]c3ccccc23)NC(=O)[C@H](CCCNC(=N)N)NC(=O)[C@@H](Cc2ccccc2)NC(=O)[C@H](Cc2c[nH]cn2)NC1=O [gallium-68 labelled] | biodistribution | C57BL/6J mouse male tumour-bearing, seminal vesicle | 2 h post injection, unblocked | 0.4 ± 0.1 %ID/g
CCCC[C@H](NC(=O)CNC(=O)CNC(=O)CN1CCN(CC(=O)O)CCN(CC(=O)O)CCN(CC(=O)O)CC1)C(=O)N[C@H]1CC(=O)NCCCC[C@@H](C(N)=O)NC(=O)[C@H](Cc2c[nH]c3ccccc23)NC(=O)[C@H](CCCNC(=N)N)NC(=O)[C@@H](Cc2ccccc2)NC(=O)[C@H](Cc2c[nH]cn2)NC1=O [copper-64 labelled] |  | C57 mouse B16/F1 melanoma, blood | 2 h | 1.03 ± 0.19 %ID/g

Repeated from above:
Structure (SMILES) | test | system | conditions | tissue uptake
CCCC[C@H](NC(=O)CNC(=O)CNC(=O)CN1CCN(CC(=O)O)CCN(CC(=O)O)CC1)C(=O)N[C@H]1CC(=O)NCCCC[C@@H](C(N)=O)NC(=O)[C@H](Cc2c[nH]c3ccccc23)NC(=O)[C@H](CCCNC(=N)N)NC(=O)[C@@H](Cc2ccccc2)NC(=O)[C@H](Cc2c[nH]cn2)NC1=O [copper-64 labelled] |  | female C57 mouse, B16/F1 melanoma, bone | intravenous, 0.037 MBq, 0.5 h | 0.41 ± 0.19 %ID/g
O=C(O)CCC(NP(=O)(O)OCCC[C@@H](NC(=O)CC[C@H](NC(=O)CCCCCNC(=O)c1ccc([18F])cc1)C(=O)O)C(=O)O)C(=O)O (some centres unmarked) |  | mouse, CWR22Rv1 xenograft, spleen | dose not given, 4 h, blocking agent pre-dosed | 0.275 ± 0.065 %ID/g
